# Experimental data pooled from the literature.
# Protocols differ between the studies behind these lines. Several values in a cell are separate wells, animals, samples, runs or records. ± gives the spread as reported.
SMILES,assay,system,setting,how to read,endpoint,result
CC[C@H](C)[C@@H](C(=O)N[C@@H](CC(C)C)C(=O)N[C@@H](CO)C(=O)N[C@@H](CO)C(=O)N[C@H](C(=O)N[C@@H](CCC(=O)O)C(=O)N[C@H](C(=O)NCC(=O)N[C@@H](CO)C(=O)N[C@@H](CO)C(=O)N[C@H](C(=O)N1C[C@H](O)C[C@H]1C(N)=O)[C@@H](C)O)C(C)C)[C@@H](C)O)N(C)C(=O)[C@H](C)NC(=O)CN(C)C(=O)[C@H](Cc1ccccc1)NC(=O)[C@H](CO)NC(=O)[C@H](CO)NC(=O)[C@H](CCCNC(=N)N)NC(=O)[C@@H](NC(=O)[C@H](CC(C)C)NC(=O)[C@H](Cc1ccccc1)NC(=O)[C@H](Cc1c[nH]cn1)NC(=O)[C@H](C)NC(=O)[C@H](CC(C)C)NC(=O)[C@H](CCCNC(=N)N)NC(=O)[C@H](CCC(=O)O)NC(=O)[C@@H](NC(=O)[C@H](C)NC(=O)[C@@H]1CSSC[C@H](NC(=O)[C@H](CCCNC(=N)N)NC(=O)CC[C@H](NC(=O)CCCCCCCCCCCCCCCCCCC(=O)O)C(=O)O)C(=O)NCC(=O)N[C@@H]([C@@H](C)O)C(=O)N[C@@H](C)C(=O)N[C@@H]([C@@H](C)O)C(=O)N1)[C@@H](C)O)[C@@H](C)O,RP-HPLC,water,"7 days, pH 7.5, 40 °C",,remaining main peak,87 area %
N=C(N)NCCC[C@@H]1NC(=O)[C@H](CCCNC(=N)N)NC(=O)[C@@H](C(c2ccccc2)c2ccccc2)NC(=O)[C@H](Cc2c[nH]c3ccccc23)NC(=O)[C@@H](C(c2ccccc2)c2ccccc2)NC(=O)[C@@H](CCCNC(=N)N)NC(=O)[C@@H](CCCNC(=N)N)NC1=O,LC-MS,human plasma,24 h,,remaining peptide,31.2%
CSCC[C@@H](N)C(=O)N[C@@H](CC(C)C)C(=O)N[C@@H](CCCNC(=N)N)C(=O)N[C@@H](Cc1c[nH]c2ccccc12)C(=O)N[C@@H](CO)C(=O)N[C@@H](CCCNC(=N)N)C(=O)N[C@@H](CCCCN)C(=O)N[C@@H](CCSC)C(=O)N1CCC[C@H]1C(=O)N[C@@H](CS)C(=O)N[C@H](C(=O)N[C@@H](CO)C(=O)O)C(C)C,"12G5 competition, SUP-T1 cells",human plasma,"concentration not given, 8 h",,remaining activity,34 ± 11%
CN(Cc1cc(C2CC2)on1)C(=O)c1cccc(-c2ccc(F)cc2)c1,,human liver microsomes,"2 µM, 120 min, pH 7.5, without ABT",,remaining compound,39.6%
C[C@](C(=O)NC1CCC(F)(F)CC1)(c1cncnc1)N(C(=O)[C@H](F)Cl)c1ccc(OC(F)(F)F)cc1,,human liver microsomes,"concentration not given, 1 h, pH 7.4",,remaining compound,4%
C=CC(=O)Nc1cc(Nc2nccc(-c3cn(C)c4ccccc34)n2)c(OC)cc1N(C)CCNC,storage stability,human dried blood spot,"270 ng/mL, 24 h, on ice, HQC level",,remaining amount,74.8%
O=C(NC1CCC(F)(F)CC1)C(c1cncnc1)N(C(=O)C(F)Cl)c1ccc(-c2cncs2)cc1 (centres unmarked),,mouse liver microsomes,"concentration not given, 1 h, pH 7.4",,remaining compound,31%
CC(C)(C)[C@H](NC(=O)c1ccc(Oc2ccc(C(=O)N[C@H]3CCCC[C@@H]3O)cc2)cc1)C(=O)NCCN1CCCC1,,human liver microsomes,"1 µM, 30 min, pH 7.4",,remaining compound,86.2%
CC[C@H](C)[C@@H](C(=O)N[C@@H](CC(C)C)C(=O)N[C@@H](CO)C(=O)N[C@@H](CO)C(=O)N[C@H](C(=O)N[C@@H](CCC(=O)O)C(=O)N[C@H](C(=O)NCC(=O)N[C@@H](CO)C(=O)N[C@@H](CC(N)=O)C(=O)N[C@H](C(=O)N1C[C@H](O)C[C@H]1C(N)=O)[C@@H](C)O)C(C)C)[C@@H](C)O)N(C)C(=O)[C@H](C)NC(=O)CN(C)C(=O)[C@H](Cc1ccccc1)NC(=O)[C@H](CO)NC(=O)[C@H](CO)NC(=O)[C@H](CCCNC(=N)N)NC(=O)[C@H](CC(N)=O)NC(=O)[C@H](CC(C)C)NC(=O)[C@H](Cc1ccccc1)NC(=O)[C@H](Cc1c[nH]cn1)NC(=O)[C@H](C)NC(=O)[C@H](CC(C)C)NC(=O)[C@H](CCCNC(=N)N)NC(=O)[C@H](CCC(=O)O)NC(=O)[C@@H](NC(=O)[C@H](C)NC(=O)[C@@H]1CSSC[C@H](NC(=O)[C@H](CCCNC(=N)N)NC(=O)CC[C@H](NC(=O)CCCCCCCCCCCCCCCCCCC(=O)O)C(=O)O)C(=O)NCC(=O)N[C@@H]([C@@H](C)O)C(=O)N[C@@H](C)C(=O)N[C@@H]([C@@H](C)O)C(=O)N1)[C@@H](C)O,RP-HPLC,water,"7 days, pH 6.0, 40 °C",,remaining main peak,80 area %
Cc1ccc(C(C)C)cc1.F[P-](F)(F)(F)(F)F.O=C(N=P(c1ccccc1)(c1ccccc1)c1ccccc1)c1ccccn1.[Cl-].[Ru+2],,DMSO-d6,1 month,,remaining intact compound,91%
CC[C@H](C)[C@@H](C(=O)N[C@@H](CC(C)C)C(=O)N[C@@H](CO)C(=O)N[C@@H](CO)C(=O)N[C@H](C(=O)N[C@@H](CCC(=O)O)C(=O)N[C@H](C(=O)NCC(=O)N[C@@H](CO)C(=O)N[C@@H](CO)C(=O)N[C@H](C(=O)N1C[C@H](O)C[C@H]1C(N)=O)[C@@H](C)O)C(C)C)[C@@H](C)O)N(C)C(=O)[C@H](C)NC(=O)CN(C)C(=O)[C@H](Cc1ccccc1)NC(=O)[C@H](CO)NC(=O)[C@H](CO)NC(=O)[C@H](CCCNC(=N)N)NC(=O)[C@H](CCC(N)=O)NC(=O)[C@H](CC(C)C)NC(=O)[C@H](Cc1ccccc1)NC(=O)[C@H](Cc1c[nH]cn1)NC(=O)[C@H](C)NC(=O)[C@H](CC(C)C)NC(=O)[C@H](CCCNC(=N)N)NC(=O)[C@H](CCC(=O)O)NC(=O)[C@@H](NC(=O)[C@H](C)NC(=O)[C@@H]1CSSC[C@H](NC(=O)[C@H](CCCNC(=N)N)NC(=O)CC[C@H](NC(=O)CCCCCCCCCCCCCCCCCCC(=O)O)C(=O)O)C(=O)NCC(=O)N[C@@H]([C@@H](C)O)C(=O)N[C@@H](C)C(=O)N[C@@H]([C@@H](C)O)C(=O)N1)[C@@H](C)O,RP-HPLC,water,"7 days, pH 7.5, 40 °C",,remaining main peak,76 area %
CC(C)(C)[Si](C)(C)Oc1ccc(COC(=O)NNc2ccccc2)cc1,,PBS,"0 h, 37 °C",baseline: initial amount,remaining fraction,0.99 and 1 and 0.98
CC[C@H](C)[C@@H](C(=O)N[C@@H](CC(C)C)C(=O)N[C@@H](CO)C(=O)N[C@@H](CO)C(=O)N[C@H](C(=O)N[C@@H](CCC(=O)O)C(=O)N[C@H](C(=O)NCC(=O)N[C@@H](CO)C(=O)NCC(=O)N[C@H](C(=O)N1C[C@H](O)C[C@H]1C(N)=O)[C@@H](C)O)C(C)C)[C@@H](C)O)N(C)C(=O)[C@H](C)NC(=O)CN(C)C(=O)[C@H](Cc1ccccc1)NC(=O)[C@H](CO)NC(=O)[C@H](CO)NC(=O)[C@H](CCCNC(=N)N)NC(=O)[C@@H](NC(=O)[C@H](CC(C)C)NC(=O)[C@H](Cc1ccccc1)NC(=O)[C@H](Cc1c[nH]cn1)NC(=O)[C@H](C)NC(=O)[C@H](CC(C)C)NC(=O)[C@H](CCCNC(=N)N)NC(=O)[C@H](CCC(=O)O)NC(=O)[C@@H](NC(=O)[C@H](C)NC(=O)[C@@H]1CSSC[C@H](NC(=O)[C@H](CCCNC(=N)N)NC(=O)CC[C@H](NC(=O)CCCCCCCCCCCCCCCCCCC(=O)O)C(=O)O)C(=O)NCC(=O)N[C@@H]([C@@H](C)O)C(=O)N[C@@H](C)C(=O)N[C@@H]([C@@H](C)O)C(=O)N1)[C@@H](C)O)[C@@H](C)O,RP-HPLC,water,"7 days, pH 7.5, 40 °C",,remaining main peak,95 area %
[2H]C([2H])([18F])Oc1cc(C(=O)OCC2CCN(CCCC)CC2)ccc1N,,phosphate buffer,"up to 2.5 h, room temperature",,remaining radioligand,99.6 ± 0.04%
